# Experimental data of several laboratories.
# Each numbered part is a random draw from the data of one study; scales do not carry over between parts. Substitutions count along the parent as printed.
# UniProt O96017, sequence (whole entry, looked up): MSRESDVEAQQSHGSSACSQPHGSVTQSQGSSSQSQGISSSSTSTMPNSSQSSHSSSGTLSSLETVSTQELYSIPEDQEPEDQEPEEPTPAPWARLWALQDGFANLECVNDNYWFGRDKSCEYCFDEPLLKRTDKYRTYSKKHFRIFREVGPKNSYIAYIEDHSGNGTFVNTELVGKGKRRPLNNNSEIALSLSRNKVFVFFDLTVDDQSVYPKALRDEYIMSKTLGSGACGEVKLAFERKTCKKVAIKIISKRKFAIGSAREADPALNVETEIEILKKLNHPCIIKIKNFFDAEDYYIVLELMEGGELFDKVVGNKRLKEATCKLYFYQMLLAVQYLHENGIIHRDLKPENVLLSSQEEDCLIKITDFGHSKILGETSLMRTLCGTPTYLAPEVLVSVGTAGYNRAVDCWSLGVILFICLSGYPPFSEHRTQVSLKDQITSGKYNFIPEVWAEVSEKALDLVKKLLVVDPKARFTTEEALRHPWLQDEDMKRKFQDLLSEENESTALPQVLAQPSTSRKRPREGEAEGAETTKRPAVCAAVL
# UniProt Q13976, sequence (whole entry, looked up): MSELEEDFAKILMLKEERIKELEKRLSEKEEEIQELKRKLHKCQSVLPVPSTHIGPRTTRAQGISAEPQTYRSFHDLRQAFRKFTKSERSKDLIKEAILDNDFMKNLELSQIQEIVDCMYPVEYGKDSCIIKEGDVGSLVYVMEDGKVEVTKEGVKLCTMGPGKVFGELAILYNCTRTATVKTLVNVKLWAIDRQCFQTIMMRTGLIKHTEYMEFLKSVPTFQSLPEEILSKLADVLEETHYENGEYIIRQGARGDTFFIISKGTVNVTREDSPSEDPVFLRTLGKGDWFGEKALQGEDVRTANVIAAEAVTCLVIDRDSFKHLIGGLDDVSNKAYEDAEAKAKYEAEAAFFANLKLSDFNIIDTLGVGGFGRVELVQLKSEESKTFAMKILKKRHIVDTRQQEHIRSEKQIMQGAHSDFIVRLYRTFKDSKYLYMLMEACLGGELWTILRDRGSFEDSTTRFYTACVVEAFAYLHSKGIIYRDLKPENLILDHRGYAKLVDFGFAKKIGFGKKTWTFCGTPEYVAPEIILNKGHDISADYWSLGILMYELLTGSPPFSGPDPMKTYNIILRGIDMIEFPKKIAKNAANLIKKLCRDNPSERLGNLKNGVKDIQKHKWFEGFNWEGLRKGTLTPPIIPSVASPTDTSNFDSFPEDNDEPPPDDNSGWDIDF
# UniProt Q9BQI3, sequence (whole entry, looked up): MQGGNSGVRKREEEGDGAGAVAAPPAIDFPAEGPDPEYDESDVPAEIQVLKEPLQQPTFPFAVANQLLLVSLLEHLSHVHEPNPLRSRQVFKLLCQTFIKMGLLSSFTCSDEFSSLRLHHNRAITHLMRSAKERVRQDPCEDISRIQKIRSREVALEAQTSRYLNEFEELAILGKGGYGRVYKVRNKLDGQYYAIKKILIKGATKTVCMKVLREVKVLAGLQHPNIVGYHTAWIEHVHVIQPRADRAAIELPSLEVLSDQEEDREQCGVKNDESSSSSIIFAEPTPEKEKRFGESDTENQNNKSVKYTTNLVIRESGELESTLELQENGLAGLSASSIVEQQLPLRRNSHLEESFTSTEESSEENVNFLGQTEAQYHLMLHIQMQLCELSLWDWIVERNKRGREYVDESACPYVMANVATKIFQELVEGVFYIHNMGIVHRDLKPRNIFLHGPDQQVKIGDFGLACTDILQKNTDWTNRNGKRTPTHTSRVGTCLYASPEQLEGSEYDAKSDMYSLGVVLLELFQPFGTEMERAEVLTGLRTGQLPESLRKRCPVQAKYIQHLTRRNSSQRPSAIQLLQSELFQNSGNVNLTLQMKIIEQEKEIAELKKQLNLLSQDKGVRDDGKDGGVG
# UniProt Q16288, sequence (whole entry, looked up): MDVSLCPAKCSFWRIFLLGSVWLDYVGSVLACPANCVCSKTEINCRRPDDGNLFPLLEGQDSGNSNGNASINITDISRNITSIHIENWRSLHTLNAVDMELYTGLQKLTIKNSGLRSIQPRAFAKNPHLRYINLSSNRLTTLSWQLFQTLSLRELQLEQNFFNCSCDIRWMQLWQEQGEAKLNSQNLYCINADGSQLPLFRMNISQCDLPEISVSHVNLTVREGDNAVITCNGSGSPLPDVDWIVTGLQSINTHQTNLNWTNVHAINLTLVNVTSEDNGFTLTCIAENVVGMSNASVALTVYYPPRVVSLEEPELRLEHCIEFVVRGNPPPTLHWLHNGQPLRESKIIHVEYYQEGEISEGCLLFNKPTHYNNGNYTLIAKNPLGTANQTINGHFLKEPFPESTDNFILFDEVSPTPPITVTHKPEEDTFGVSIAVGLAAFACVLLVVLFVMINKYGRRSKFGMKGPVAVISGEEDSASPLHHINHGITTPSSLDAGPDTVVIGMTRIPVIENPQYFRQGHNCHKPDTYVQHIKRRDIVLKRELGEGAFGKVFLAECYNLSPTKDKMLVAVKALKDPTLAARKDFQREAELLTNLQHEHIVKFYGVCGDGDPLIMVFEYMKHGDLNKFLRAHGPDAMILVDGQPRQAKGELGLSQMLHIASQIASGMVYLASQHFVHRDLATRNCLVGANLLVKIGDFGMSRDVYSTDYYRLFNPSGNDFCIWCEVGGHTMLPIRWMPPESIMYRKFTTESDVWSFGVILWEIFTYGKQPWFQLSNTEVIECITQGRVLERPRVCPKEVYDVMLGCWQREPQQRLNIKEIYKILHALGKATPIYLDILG
# UniProt Q15831, sequence (whole entry, looked up): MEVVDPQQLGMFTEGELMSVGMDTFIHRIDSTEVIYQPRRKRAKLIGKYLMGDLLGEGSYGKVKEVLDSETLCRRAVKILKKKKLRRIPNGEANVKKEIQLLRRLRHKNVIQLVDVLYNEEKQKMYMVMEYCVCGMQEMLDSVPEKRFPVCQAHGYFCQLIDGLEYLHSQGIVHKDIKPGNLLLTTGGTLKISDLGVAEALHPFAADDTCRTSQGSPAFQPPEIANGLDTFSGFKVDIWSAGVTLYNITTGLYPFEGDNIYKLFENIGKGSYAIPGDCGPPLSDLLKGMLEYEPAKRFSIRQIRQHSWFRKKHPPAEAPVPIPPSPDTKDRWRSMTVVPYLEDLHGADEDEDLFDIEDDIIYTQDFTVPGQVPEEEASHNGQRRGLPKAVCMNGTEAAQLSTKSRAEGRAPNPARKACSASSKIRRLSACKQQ
# UniProt P36897, sequence (whole entry, looked up): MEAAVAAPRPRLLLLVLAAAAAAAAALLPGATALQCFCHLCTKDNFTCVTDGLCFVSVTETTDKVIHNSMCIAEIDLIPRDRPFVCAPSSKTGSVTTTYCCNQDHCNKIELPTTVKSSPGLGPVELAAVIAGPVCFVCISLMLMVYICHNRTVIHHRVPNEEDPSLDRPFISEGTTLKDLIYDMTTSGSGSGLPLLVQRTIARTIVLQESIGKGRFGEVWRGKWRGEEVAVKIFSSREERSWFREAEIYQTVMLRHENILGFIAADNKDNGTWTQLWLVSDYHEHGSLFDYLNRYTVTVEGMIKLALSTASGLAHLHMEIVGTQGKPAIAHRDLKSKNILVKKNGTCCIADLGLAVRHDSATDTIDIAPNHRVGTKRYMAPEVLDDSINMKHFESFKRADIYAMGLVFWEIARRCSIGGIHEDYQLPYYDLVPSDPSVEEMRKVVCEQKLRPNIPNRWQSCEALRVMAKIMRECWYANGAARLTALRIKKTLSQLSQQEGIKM
# UniProt P11802, sequence (whole entry, looked up): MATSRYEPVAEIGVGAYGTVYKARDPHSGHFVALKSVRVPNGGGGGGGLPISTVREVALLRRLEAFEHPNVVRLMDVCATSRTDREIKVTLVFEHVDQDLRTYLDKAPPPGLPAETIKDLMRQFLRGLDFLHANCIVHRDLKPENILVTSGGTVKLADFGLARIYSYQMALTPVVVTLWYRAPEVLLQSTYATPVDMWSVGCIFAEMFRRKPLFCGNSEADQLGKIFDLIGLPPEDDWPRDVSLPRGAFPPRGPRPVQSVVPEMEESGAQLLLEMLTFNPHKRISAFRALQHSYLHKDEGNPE

# Sample 1
# Structure (SMILES): Clc1ccc(Nc2nnc(Cc3ccncc3)c3ccccc23)cc1
# Effect on: enzyme activity
# Mode: inhibitor
# Tested at: 0.5 µM
# Baseline: control
target,remaining activity [%]
"Serine/threonine-protein kinase OSR1 (OXSR1, Homo sapiens, UniProt O95747)",101
"Death-associated protein kinase 2 (DAPK2, Homo sapiens, UniProt Q9UIK4)",91.7
"Cyclin-dependent kinase 5, with p25 (CDK5, Homo sapiens, UniProt Q00535)",91.3
"TGF-beta receptor type-1 (TGFBR1, Homo sapiens, UniProt P36897)",96.8
"STE20/SPS1-related proline-alanine-rich protein kinase (STK39, Homo sapiens, UniProt Q9UEW8)",92.6
"G protein-coupled receptor kinase 3 (GRK3, Homo sapiens, UniProt P35626)",92.9
"Protein kinase C alpha type (PRKCA, Homo sapiens, UniProt P17252)",75.8
"Mitogen-activated protein kinase kinase kinase 3 (MAP3K3, Homo sapiens, UniProt Q99759)",118
"cAMP-dependent protein kinase catalytic subunit alpha (PRKACA, Homo sapiens, UniProt P17612)",98.1
"Tyrosine-protein kinase Lyn, isoform B (LYN, Homo sapiens, UniProt P07948)",110
"cGMP-dependent protein kinase 1, isoform beta (PRKG1, Homo sapiens, UniProt Q13976)",94.1
"Serine/threonine-protein kinase 10 (STK10, Homo sapiens, UniProt O94804)",96.3
"Calcium/calmodulin-dependent protein kinase kinase 2 (CAMKK2, Homo sapiens, UniProt Q96RR4)",100
"Calcium/calmodulin-dependent protein kinase type II subunit delta (CAMK2D, Homo sapiens, UniProt Q13557)",81.1
"Protein kinase C beta type, isoform beta-I (PRKCB, Homo sapiens, UniProt P05771)",83.5
"Serine/threonine-protein kinase Chk2 (CHEK2, Homo sapiens, UniProt O96017)",98.5
"TGF-beta receptor type-2 (TGFBR2, Homo sapiens, UniProt P37173)",100
"Cyclin-dependent kinase 4, with cyclin D1 (CDK4, Homo sapiens, UniProt P11802)",96.6
"Serine/threonine-protein kinase STK11 (STK11, Homo sapiens, UniProt Q15831)",97.3
"Death-associated protein kinase 1 (DAPK1, Homo sapiens, UniProt P53355)",105

# Sample 2
# Target: Eukaryotic initiation factor 4A-I (EIF4A1, Homo sapiens, UniProt P60842, residues 1-406, full length assumed)
# UniProt P60842, sequence (whole entry, looked up): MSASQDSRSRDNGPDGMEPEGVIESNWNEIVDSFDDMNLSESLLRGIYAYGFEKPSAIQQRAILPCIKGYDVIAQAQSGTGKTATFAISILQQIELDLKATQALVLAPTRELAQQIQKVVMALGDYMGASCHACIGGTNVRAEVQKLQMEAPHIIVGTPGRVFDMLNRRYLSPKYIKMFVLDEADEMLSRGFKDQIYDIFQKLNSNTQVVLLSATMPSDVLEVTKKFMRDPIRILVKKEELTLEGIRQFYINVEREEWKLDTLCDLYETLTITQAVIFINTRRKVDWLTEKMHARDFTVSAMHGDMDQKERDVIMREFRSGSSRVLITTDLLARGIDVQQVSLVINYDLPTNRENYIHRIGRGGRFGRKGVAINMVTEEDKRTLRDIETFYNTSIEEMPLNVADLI
# Technique: RNA Bind-n-Seq
# Form: RNA
# Sample: in vitro
# Tested at: 90 pmol
# Setting: 4-mer, random 30-nt RNA, single round
# Together with: 3 µM DMDA-PatA, 2 mM ADP, 2 mM phosphate
# Baseline: input library
# Reading: higher = stronger binding
Strand,4-mer enrichment [fold]
AAUG,1.18
GUCU,0.685
CGUC,0.767
AUAA,1.02
AACC,0.637
GCCG,0.59
AAGU,1.26
CUUG,0.658

# Sample 3
# Target: ABI1, truncated, D143A, DHFR fusion (Arabidopsis thaliana)
# Technique: DHFR PCA, deep sequencing
# Sample: yeast
# Setting: methotrexate growth selection, single substitutions
# Together with: (+)-ABA 58 µM
# Baseline: wild-type fitted maximum
# Reading: higher = stronger binding
# Starting sequence: PYL1, truncated, DHFR fusion (Arabidopsis thaliana); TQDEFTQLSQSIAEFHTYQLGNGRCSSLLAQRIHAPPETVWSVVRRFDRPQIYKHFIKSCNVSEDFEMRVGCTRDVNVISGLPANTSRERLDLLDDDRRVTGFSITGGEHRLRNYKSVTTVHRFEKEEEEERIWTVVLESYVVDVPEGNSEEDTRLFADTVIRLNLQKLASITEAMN; partner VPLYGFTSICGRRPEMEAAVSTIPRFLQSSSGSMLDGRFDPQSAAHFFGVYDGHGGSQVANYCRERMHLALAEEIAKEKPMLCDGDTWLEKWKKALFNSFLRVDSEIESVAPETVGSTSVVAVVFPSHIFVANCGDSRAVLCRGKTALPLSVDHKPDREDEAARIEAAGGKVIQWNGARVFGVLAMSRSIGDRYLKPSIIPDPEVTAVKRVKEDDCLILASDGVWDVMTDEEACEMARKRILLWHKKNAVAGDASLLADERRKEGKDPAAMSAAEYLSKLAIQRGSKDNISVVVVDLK
Variant,relative binding score [%]
L164I,77.6
S104K,31.9
R98D,56.2
A158I,85.8
E38G,73.6
L29P,-10.1
K126F,93.2
R132P,104

# Sample 4
# Compound: NS(=O)(=O)c1cc(NC(=O)C2(c3ccccc3Cl)CC2)ccc1Oc1cccc(Cl)c1
# Technique: competition with immobilised ligand
# Tested at: 1 µM
target,test,remaining binding
"Eukaryotic translation initiation factor 2-alpha kinase 1 (EIF2AK1, Homo sapiens, UniProt Q9BQI3)",cell-free assay,95%
"Mitogen-activated protein kinase kinase kinase 20 (MAP3K20, Homo sapiens, UniProt Q9NYL2)",cell-free assay,99%
"Phosphatidylinositol 5-phosphate 4-kinase type-2 gamma (PIP4K2C, Homo sapiens, UniProt Q8TBX8)",cell-free assay,62%
"Phosphatidylinositol 4-phosphate 5-kinase type-1 gamma (PIP5K1C, Homo sapiens, UniProt O60331)",cell-free assay,48%
"Serine/threonine-protein kinase RIO1 (RIOK1, Homo sapiens, UniProt Q9BRS2)",cell-free assay,84%
"Mast/stem cell growth factor receptor Kit, autoinhibited (KIT, Homo sapiens, UniProt P10721)",cell-free assay,79%
"Serine/threonine-protein kinase Chk2 (CHEK2, Homo sapiens, UniProt O96017)",cell-free assay,100%
"Tyrosine-protein kinase ABL1, non-phosphorylated (ABL1, Homo sapiens, UniProt P00519, F317I)",binding,96%
"Serine/threonine-protein kinase PLK4 (PLK4, Homo sapiens, UniProt O00444)",cell-free assay,87%
"Serine/threonine-protein kinase DCLK1 (DCLK1, Homo sapiens, UniProt O15075)",cell-free assay,68%
"Serine/threonine-protein kinase 17A (STK17A, Homo sapiens, UniProt Q9UEE5)",cell-free assay,85%
"Protein kinase C theta type (PRKCQ, Homo sapiens, UniProt Q04759)",cell-free assay,88%
"Platelet-derived growth factor receptor alpha (PDGFRA, Homo sapiens, UniProt P16234)",cell-free assay,81%
"Dual specificity testis-specific protein kinase 1 (TESK1, Homo sapiens, UniProt Q15569)",cell-free assay,100%
"Phosphatidylinositol 4,5-bisphosphate 3-kinase catalytic subunit alpha isoform (PIK3CA, Homo sapiens, UniProt P42336, M1043I)",cell-free assay,98%
"Cyclin-dependent kinase-like 5 (CDKL5, Homo sapiens, UniProt O76039)",binding,95%
"eIF-2-alpha kinase GCN2, C-terminal kinase domain (EIF2AK4, Homo sapiens, UniProt Q9P2K8, S808G)",cell-free assay,76%
"NT-3 growth factor receptor (NTRK3, Homo sapiens, UniProt Q16288)",cell-free assay,88%
"Tyrosine-protein kinase ZAP-70 (ZAP70, Homo sapiens, UniProt P43403)",cell-free assay,100%

# A few entries again (sample 4):
target,test,remaining binding
"Phosphatidylinositol 4-phosphate 5-kinase type-1 gamma (PIP5K1C, Homo sapiens, UniProt O60331)",cell-free assay,48%
"Dual specificity testis-specific protein kinase 1 (TESK1, Homo sapiens, UniProt Q15569)",cell-free assay,100%
"Mast/stem cell growth factor receptor Kit, autoinhibited (KIT, Homo sapiens, UniProt P10721)",cell-free assay,79%
"Serine/threonine-protein kinase PLK4 (PLK4, Homo sapiens, UniProt O00444)",cell-free assay,87%
"Serine/threonine-protein kinase Chk2 (CHEK2, Homo sapiens, UniProt O96017)",cell-free assay,100%
"eIF-2-alpha kinase GCN2, C-terminal kinase domain (EIF2AK4, Homo sapiens, UniProt Q9P2K8, S808G)",cell-free assay,76%
"NT-3 growth factor receptor (NTRK3, Homo sapiens, UniProt Q16288)",cell-free assay,88%
"Serine/threonine-protein kinase DCLK1 (DCLK1, Homo sapiens, UniProt O15075)",cell-free assay,68%
"Eukaryotic translation initiation factor 2-alpha kinase 1 (EIF2AK1, Homo sapiens, UniProt Q9BQI3)",cell-free assay,95%
